Measured values gathered from unrelated publications.
Lines come from different studies, so protocols differ. Several values in a cell are separate wells, animals, samples, runs or records. Numbers after ± are the reported error.

| SMILES | tested on | test | system | setting | scale | measurement | result |
| --- | --- | --- | --- | --- | --- | --- | --- |
| CC(C)(C)[C@H](NC(=O)C(F)(F)F)C(=O)N1C[C@H]2[C@@H]([C@H]1C(=O)N[C@H](C#N)C[C@@H]1CCNC1=O)C2(C)C | – | – | human liver microsomes | 60 min, with: NADPH | – | remaining compound | 35.7% |
| COc1ccc(C(=O)OCOP(=O)(CC/C=C(\C)CO)Oc2ccc(C(C)C)cc2)cc1 (stereo not drawn) | – | – | 50% CD1 mouse plasma | 100 µM, 2 h, pH 7.5, 37 °C | – | remaining compound | 0% |
| C[N+](C)(CCCCCC[N+](C)(C)CCCN1C(=O)c2cccc3cccc(c23)C1=O)CCCN1C(=O)c2cccc3cccc(c23)C1=O | Plasmodium falciparum | – | 3D7 | – | – | IC50 | 100 nM |
| CCC[C@@](N)(CO)CCc1ccc(OCCCCCC(C)C)cc1 | – | – | cynomolgus monkey liver microsomes | 1 h | – | remaining compound | 16% |
| COc1ccccc1N1CCN(CCN(C(=O)C2CCCCC2)c2ccccn2)CC1 | Plasmodium falciparum | – | 7G8 | – | – | IC50 | 2000 nM |
| COc1c(N2CC3CCCNC3C2)c(F)cc2c(=O)c(C(=O)OCc3cnc([N+](=O)[O-])s3)cn(C3CC3)c12 (stereo not drawn) | – | LC-MS | human plasma, EDTA | 30 µM, 6 h | baseline: initial amount | remaining compound | > 75% |
| Cc1ncc2n1-c1ccc(Cl)cc1C(c1ccccc1F)=NC2 | – | – | cell-free culture medium | 5 µM, 72 h, cell-free MPS plate | baseline: initial amount | remaining compound | 100% |
| CC(=O)OC/C(C)=C/CCP(=O)(OCOC(=O)C1CCOCC1)Oc1ccc(C(C)C)cc1 (stereo not drawn) | – | – | 50% CD1 mouse plasma | 100 µM, 2 h, pH 7.5, 37 °C | – | remaining compound | 0% |
| CC[C@@H](C)[C@@H](NC(=O)[C@@H](Cc1ccc(O)cc1)NC(=O)[C@H]1CCCN1C(=O)[C@@H](CCCNC(=N)N)NC(=O)[C@H](N)Cc1c[nH]cn1)C(=O)N[C@H](C)C(=O)N[C@H](Cc1c[nH]cn1)C(=O)N[C@H](CCCNC(=N)N)C(=O)N[C@@H](C(=O)N[C@H](Cc1ccc(O)cc1)C(=O)N[C@H](CO)C(=O)N[C@H](Cc1ccccc1)C(N)=O)C(C)C | – | – | 10% human serum | 24 h | – | remaining compound | 93.7% and 93.9% and 85.1% |
| O=S(=O)(F)Oc1cc(C(F)(F)F)cc(C(F)(F)F)c1 | – | HPLC-MS | HEPES buffer with 10% acetonitrile | 1 mM, 1 h, pH 7.4 | – | remaining compound | 65% |
| C/C(=C\CCP(=O)(OCOC(=O)CC1CCCCC1)Oc1ccc(C(C)C)cc1)CO (stereo not drawn) | – | – | 50% Sprague-Dawley rat plasma | 100 µM, 2 h, pH 7.5, 37 °C | – | remaining compound | 0% |
| O=S(=O)(F)c1cc(C(F)(F)F)cc(C(F)(F)F)c1 | – | – | HEPES buffer | 1 mM, 20 h, pH 7.4, 10% acetonitrile | – | remaining compound | 17% |
| C[C@@H](NC(=O)[C@@H](N)Cc1ccc(O)cc1)C(=O)NCC(=O)N[C@@H](Cc1ccc(F)cc1)C(=O)N1CCN(C(=O)[C@H](Cc2ccc(F)cc2)NC(=O)CNC(=O)[C@@H](C)NC(=O)[C@@H](N)Cc2ccc(O)cc2)CC1 | – | LC-MS | human plasma | 5 µM, 1 h, 37 °C | – | remaining compound | 98.8% |
| CC[C@@H](C)[C@@H](NC(=O)[C@@H](Cc1ccc(O)cc1)NC(=O)[C@H]1CCCN1C(=O)[C@@H](CCCNC(=N)N)NC(=O)[C@H](N)Cc1c[nH]cn1)C(=O)N[C@H](C)C(=O)N[C@H](Cc1c[nH]cn1)C(=O)N[C@H](CCCNC(=N)N)C(=O)N[C@H](CCCCNC(=O)c1cccc(S(=O)(=O)F)c1)C(=O)N[C@H](Cc1ccc(O)cc1)C(=O)N[C@H](CO)C(=O)N[C@H](Cc1ccccc1)C(N)=O | – | – | 10% human serum | 6 h | – | remaining compound | 109% and 111% and 110% |
| CC(=O)OC/C(C)=C/CCP(=O)(OCOC(=O)CC1CCOCC1)Oc1cccc2ccccc12 (stereo not drawn) | – | – | 50% CD1 mouse plasma | 100 µM, 2 h, pH 7.5, 37 °C | – | remaining compound | 0% |
| CC(C)N(CCc1c[nH]c2cccc(OC(=O)CCCC(=O)O)c12)C(C)C.Cl | – | – | beagle dog plasma | 1 µg/mL, 4 h, 37 °C | – | remaining compound | 39% |
| C/C(=C\CCP(=O)(OCOC(=O)C1CCOCC1)Oc1ccc(C(C)C)cc1)CO (stereo not drawn) | – | – | 50% Sprague-Dawley rat plasma | 100 µM, 2 h, pH 7.5, 37 °C | – | remaining compound | 0% |
| CC(C)CC(=O)OC[C@H]1O[C@@](C#N)(c2ccc3c(N)ncnn23)[C@H](O)[C@@H]1O | – | – | mouse hepatocytes | 5 µM, 15 min | – | remaining compound | 0.891 ± 0.261% |
| CC(=O)OC/C(C)=C/CCP(=O)(OCOC(=O)CC1CCOCC1)Oc1ccc(C(C)C)cc1 (stereo not drawn) | – | – | 50% Sprague-Dawley rat plasma | 100 µM, 2 h, pH 7.5, 37 °C | – | remaining compound | 0% |
| c1ccc([C@@H]2C[C@H]2NC2CCNCC2)cc1 | – | LC-MS | PBS with 25% DMSO | 5 mM, 144 h, 37 °C | – | remaining compound | 95% |
| CCN(CC)CCOC(=O)c1ccc(N)cc1 | – | – | human plasma | 4 h | – | remaining compound | 0% |

Repeated from above:
| SMILES | tested on | test | system | setting | scale | measurement | result |
| --- | --- | --- | --- | --- | --- | --- | --- |
| CC(C)N(CCc1c[nH]c2cccc(OC(=O)CCCC(=O)O)c12)C(C)C.Cl | – | – | beagle dog plasma | 1 µg/mL, 4 h, 37 °C | – | remaining compound | 39% |
| C/C(=C\CCP(=O)(OCOC(=O)C1CCOCC1)Oc1ccc(C(C)C)cc1)CO (stereo not drawn) | – | – | 50% Sprague-Dawley rat plasma | 100 µM, 2 h, pH 7.5, 37 °C | – | remaining compound | 0% |
| CC(C)CC(=O)OC[C@H]1O[C@@](C#N)(c2ccc3c(N)ncnn23)[C@H](O)[C@@H]1O | – | – | mouse hepatocytes | 5 µM, 15 min | – | remaining compound | 0.891 ± 0.261% |
